{"sequences": {"note": "Amino acid sequences for entries named in this document (tags omitted). A change or cut given only in a name is not applied to a line headed by its entry. Residues count along the entry.", "UniProt P04150, whole entry": "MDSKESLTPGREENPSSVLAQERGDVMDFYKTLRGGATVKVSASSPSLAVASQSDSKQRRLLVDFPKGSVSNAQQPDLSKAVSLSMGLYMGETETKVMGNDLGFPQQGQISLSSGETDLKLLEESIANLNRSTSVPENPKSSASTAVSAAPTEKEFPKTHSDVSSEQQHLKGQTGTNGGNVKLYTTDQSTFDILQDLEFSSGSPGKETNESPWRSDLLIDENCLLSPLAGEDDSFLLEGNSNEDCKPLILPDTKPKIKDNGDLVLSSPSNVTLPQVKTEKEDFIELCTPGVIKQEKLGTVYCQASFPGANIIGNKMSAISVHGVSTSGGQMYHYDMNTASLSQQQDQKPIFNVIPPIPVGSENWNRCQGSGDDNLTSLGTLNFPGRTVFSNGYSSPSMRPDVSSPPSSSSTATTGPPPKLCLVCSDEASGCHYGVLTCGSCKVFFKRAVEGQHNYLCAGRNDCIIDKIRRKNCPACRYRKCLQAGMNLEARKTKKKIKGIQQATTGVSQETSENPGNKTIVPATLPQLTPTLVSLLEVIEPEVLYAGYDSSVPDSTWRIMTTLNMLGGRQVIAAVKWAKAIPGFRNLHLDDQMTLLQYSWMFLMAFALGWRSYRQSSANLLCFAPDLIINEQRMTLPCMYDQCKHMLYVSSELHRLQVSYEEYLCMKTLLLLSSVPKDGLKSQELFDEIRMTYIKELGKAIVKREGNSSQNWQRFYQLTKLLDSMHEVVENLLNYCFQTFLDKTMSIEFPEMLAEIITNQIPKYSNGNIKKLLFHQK", "UniProt P23204, whole entry": "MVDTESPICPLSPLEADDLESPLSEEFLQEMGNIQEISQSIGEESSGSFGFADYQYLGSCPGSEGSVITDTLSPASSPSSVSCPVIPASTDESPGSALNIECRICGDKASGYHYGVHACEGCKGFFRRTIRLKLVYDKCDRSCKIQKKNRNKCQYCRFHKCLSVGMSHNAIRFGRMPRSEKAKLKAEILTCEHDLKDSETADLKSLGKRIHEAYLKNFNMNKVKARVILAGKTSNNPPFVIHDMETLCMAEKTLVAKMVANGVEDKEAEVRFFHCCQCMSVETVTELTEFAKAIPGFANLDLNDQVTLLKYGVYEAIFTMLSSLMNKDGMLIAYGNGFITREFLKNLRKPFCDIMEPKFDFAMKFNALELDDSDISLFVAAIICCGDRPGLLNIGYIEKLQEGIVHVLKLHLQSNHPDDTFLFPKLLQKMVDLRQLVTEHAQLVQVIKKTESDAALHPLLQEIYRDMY", "UniProt P13569, whole entry": "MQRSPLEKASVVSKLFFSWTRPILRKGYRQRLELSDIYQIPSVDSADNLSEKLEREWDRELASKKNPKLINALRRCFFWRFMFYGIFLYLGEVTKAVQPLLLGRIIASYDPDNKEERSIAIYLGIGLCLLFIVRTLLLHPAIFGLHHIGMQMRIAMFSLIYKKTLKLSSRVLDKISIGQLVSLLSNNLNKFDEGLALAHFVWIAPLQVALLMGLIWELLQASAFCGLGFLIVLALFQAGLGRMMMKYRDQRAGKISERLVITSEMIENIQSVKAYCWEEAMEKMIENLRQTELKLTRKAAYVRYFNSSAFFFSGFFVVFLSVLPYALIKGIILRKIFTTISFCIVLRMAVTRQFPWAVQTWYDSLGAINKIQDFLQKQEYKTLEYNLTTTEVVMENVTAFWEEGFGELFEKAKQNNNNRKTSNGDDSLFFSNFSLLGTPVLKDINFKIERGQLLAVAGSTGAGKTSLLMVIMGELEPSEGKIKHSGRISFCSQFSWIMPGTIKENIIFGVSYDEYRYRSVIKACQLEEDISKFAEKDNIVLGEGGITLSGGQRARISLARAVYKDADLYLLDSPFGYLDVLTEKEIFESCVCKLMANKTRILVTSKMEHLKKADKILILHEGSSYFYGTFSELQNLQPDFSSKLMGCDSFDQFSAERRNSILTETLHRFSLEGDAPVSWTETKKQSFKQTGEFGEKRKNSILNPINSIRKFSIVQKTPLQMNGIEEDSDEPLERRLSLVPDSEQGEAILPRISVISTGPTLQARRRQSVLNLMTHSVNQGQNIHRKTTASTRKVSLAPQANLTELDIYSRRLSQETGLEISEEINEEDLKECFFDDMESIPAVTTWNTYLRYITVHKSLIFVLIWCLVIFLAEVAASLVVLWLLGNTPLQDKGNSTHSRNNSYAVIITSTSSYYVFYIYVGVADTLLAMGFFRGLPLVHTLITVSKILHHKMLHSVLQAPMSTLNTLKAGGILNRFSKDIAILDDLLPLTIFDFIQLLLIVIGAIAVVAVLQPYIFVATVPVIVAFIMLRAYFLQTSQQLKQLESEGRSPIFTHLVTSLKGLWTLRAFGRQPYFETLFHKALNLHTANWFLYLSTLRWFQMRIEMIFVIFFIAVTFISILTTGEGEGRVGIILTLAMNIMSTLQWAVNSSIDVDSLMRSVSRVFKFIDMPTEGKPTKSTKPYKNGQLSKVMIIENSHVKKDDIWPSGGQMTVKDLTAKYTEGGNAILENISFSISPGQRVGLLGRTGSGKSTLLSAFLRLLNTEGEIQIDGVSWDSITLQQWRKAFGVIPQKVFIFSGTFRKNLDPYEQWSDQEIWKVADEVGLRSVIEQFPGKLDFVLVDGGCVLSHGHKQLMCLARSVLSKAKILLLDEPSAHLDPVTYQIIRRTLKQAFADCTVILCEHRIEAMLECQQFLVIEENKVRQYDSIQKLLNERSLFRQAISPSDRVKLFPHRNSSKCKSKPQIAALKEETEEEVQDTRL", "UniProt P03372, whole entry": "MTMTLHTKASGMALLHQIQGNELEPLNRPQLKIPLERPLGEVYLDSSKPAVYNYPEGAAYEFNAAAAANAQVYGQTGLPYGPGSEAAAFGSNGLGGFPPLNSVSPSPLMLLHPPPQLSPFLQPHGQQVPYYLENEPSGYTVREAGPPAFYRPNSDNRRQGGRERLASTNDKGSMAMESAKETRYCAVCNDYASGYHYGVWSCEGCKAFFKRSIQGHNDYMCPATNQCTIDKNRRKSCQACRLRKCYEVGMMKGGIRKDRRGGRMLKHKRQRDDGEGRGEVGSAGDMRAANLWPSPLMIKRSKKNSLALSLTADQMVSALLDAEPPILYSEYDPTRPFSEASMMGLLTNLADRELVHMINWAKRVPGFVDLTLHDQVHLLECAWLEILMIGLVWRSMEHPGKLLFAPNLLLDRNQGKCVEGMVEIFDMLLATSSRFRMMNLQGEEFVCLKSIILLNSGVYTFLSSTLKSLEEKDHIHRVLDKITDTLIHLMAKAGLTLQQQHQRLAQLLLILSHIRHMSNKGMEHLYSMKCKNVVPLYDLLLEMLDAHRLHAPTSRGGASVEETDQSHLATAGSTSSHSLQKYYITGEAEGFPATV", "UniProt P36888, 27-993 D835Y limits assumed": "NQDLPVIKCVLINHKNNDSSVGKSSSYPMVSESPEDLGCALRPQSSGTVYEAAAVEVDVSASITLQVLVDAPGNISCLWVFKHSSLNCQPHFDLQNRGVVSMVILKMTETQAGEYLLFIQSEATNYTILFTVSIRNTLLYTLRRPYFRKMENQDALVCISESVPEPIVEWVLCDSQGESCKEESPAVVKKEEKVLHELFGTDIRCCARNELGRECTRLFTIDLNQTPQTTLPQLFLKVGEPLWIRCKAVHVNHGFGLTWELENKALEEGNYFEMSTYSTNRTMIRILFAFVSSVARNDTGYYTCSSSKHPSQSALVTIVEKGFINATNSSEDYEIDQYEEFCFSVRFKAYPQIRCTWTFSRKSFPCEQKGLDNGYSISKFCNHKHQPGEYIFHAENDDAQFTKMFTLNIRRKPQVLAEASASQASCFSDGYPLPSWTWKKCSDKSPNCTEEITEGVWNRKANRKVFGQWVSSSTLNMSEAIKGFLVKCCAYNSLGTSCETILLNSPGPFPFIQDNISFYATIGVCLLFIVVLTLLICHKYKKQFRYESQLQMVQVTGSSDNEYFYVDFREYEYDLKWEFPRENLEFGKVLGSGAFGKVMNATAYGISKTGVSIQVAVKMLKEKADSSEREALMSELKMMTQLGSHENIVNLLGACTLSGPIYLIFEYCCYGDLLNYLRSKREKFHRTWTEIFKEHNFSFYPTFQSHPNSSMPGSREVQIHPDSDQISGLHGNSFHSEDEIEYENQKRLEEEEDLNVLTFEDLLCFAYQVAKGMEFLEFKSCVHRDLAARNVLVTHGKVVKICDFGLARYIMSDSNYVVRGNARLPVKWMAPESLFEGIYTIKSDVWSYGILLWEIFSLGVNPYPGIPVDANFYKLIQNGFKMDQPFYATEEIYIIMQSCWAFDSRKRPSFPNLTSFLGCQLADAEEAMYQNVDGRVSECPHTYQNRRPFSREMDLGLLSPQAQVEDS", "UniProt P17858, whole entry": "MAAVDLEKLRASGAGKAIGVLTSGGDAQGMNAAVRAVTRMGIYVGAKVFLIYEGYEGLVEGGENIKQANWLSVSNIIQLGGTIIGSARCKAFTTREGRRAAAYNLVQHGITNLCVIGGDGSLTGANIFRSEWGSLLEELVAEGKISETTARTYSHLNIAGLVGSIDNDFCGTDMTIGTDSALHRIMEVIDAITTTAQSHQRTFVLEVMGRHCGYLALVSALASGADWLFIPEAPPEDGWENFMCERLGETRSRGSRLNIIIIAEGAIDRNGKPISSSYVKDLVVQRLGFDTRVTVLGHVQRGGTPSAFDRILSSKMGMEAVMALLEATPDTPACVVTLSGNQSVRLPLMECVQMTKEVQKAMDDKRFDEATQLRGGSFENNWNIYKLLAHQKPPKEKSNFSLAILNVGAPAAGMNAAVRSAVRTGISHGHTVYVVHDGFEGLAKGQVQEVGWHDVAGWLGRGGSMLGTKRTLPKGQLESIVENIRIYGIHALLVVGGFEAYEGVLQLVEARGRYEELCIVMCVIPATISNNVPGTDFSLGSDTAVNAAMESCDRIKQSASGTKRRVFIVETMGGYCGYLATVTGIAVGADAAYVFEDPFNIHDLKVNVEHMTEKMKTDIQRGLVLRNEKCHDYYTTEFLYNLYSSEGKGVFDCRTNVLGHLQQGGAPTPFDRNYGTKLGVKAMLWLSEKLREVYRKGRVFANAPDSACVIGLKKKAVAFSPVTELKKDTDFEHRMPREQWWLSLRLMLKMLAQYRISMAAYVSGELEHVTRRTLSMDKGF", "UniProt P26045, whole entry": "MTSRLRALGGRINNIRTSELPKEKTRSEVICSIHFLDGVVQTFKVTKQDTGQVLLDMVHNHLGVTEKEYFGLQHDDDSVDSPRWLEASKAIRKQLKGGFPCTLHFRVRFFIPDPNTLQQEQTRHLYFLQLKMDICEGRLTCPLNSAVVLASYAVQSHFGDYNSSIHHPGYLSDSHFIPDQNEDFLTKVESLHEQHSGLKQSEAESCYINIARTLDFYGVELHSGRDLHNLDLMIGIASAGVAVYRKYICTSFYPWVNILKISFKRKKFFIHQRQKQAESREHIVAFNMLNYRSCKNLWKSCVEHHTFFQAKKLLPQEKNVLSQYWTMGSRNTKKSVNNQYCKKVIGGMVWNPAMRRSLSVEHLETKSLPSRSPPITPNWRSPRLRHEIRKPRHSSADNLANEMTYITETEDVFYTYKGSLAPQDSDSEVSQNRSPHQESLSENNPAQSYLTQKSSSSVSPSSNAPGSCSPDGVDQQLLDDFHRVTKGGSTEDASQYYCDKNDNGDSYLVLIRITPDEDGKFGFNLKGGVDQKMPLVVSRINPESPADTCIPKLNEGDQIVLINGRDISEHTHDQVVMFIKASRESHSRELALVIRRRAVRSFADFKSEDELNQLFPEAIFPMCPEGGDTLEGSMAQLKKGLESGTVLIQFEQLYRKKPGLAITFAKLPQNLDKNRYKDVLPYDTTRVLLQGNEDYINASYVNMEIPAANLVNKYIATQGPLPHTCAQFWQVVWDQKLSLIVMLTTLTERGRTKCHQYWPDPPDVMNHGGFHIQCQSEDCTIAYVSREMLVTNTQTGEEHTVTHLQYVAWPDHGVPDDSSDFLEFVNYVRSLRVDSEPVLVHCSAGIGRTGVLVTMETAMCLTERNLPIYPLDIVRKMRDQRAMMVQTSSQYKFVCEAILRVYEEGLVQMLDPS", "UniProt O75874, whole entry R132C": "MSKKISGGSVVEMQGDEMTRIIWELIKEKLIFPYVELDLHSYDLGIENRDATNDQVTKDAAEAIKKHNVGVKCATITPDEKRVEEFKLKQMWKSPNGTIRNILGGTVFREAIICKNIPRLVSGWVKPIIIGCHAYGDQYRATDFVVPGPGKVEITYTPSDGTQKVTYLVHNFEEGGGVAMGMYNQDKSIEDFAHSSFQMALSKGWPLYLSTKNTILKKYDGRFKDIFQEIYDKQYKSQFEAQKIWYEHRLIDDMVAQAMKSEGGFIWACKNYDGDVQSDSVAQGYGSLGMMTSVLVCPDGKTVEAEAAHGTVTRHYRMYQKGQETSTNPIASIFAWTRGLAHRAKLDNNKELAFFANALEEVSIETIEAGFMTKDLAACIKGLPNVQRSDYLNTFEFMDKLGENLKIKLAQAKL"}, "data": "Assay results of several laboratories", "NR3C1": "Glucocorticoid receptor (NR3C1, Homo sapiens, UniProt P04150)", "HSP90AA1": "Heat shock protein HSP 90-alpha (HSP90AA1, Homo sapiens, UniProt P07900)", "Ppara": "Peroxisome proliferator-activated receptor alpha (Ppara, Mus musculus, UniProt P23204)"}
{"Structure (SMILES)": "O=C(Nc1cccnn1)N1CC(Oc2ccc(-c3ccccc3F)cn2)C1", "assay": "Emax model of Ctrough concentration-response, item: plasma PEA", "test system": "human, plasma", "setting": "oral, repeated daily dosing", "endpoint": "Emax", "value": "~5 ng/mL"}
{"Structure (SMILES)": "CCOC(=O)OCOc1c(-c2ccc(Oc3ccc(OC(F)(F)F)cc3)cc2)c(C)nc2cc(OC)c(Cl)cc12", "tested on": "Cytochrome b (MT-CYB, Homo sapiens, UniProt P00156)", "assay": "enzyme activity", "endpoint": "EC50", "value": "> 10 µM"}
{"Structure (SMILES)": "C[C@]1(O)CC[C@H]2[C@@H]3[C@@H](O)CC4=CC(=O)CC[C@@]4(C)[C@H]3CC[C@]21C", "tested on": "NR3C1", "assay": "nuclear translocation, agonist, enzyme fragment complementation", "endpoint": "EC50", "value": "> 9 µM"}
{"Structure (SMILES)": "CCCCCCCC(=O)OCC(COP(=O)(O)OC1C(O)C(O)C(OP(=O)(O)O)C(OP(=O)(O)O)C1O)OC(=O)CCCCCCC (stereo not drawn)", "tested on": "Arf-GAP with SH3 domain, ANK repeat and PH domain-containing protein 1 (Asap1, Mus musculus, UniProt Q9QWY8)", "assay": "GAP activity, activator", "setting": "no phosphatidylserine, together with: myrArf1·GTP substrate", "endpoint": "EC50", "value": "18 µM"}
{"Structure (SMILES)": "Nc1ccc([N+](=O)[O-])cc1-c1nc2cc(Cl)ccc2n(Cc2ccccc2)c1=O", "tested on": "CFTR (Homo sapiens, UniProt P13569)", "assay": "short-circuit current, activator", "test system": "FRT expressing wild-type CFTR", "endpoint": "EC50", "value": "0.308 µM"}
{"Structure (SMILES)": "CCCC1C/C=C/CCCCC(=NOCC(=O)N2CCCCC2)Cc2c(Cl)c(O)cc(O)c2C(=O)O1 (stereo not drawn)", "tested on": "HSP90AA1", "assay": "binding, fluorescence polarisation competition", "setting": "E/Z oxime mixture, together with: fluorescein-labelled 17-AAG", "endpoint": "EC50", "value": "0.543 µM"}
{"Structure (SMILES)": "O=c1c(O[C@@H]2O[C@H](CO)[C@@H](O)[C@H](O)[C@H]2O)c(-c2cc(O)c(O[C@@H]3O[C@H](CO)[C@@H](O)[C@H](O)[C@H]3O)c(O)c2)oc2cc(O)cc(O)c12", "tested on": "Estrogen receptor (ESR1, Homo sapiens, UniProt P03372)", "assay": "DNA binding array formation, agonist", "test system": "PRL-HeLa expressing ESR1-GFP", "setting": "1 h", "endpoint": "EC50", "value": "2.36 µM"}
{"Structure (SMILES)": "Fc1cccc(-n2cnc3c(NCc4nc5cc(Cl)ccc5[nH]4)nc(N4CCNCC4)nc32)c1", "tested on": "FLT3 (Homo sapiens, UniProt P36888, D835Y)", "assay": "KINOMEscan competition binding", "setting": "10 µM", "scale": "baseline: control", "endpoint": "remaining binding", "value": "10%"}
{"Structure (SMILES)": "CC(C)C[C@H]1NC(=O)[C@H]([C@@H](C)O)NC(=O)[C@@H](CN)NC(=O)[C@H](CCCNC(=N)N)NC(=O)[C@@H](Cc2ccccc2)NC(=O)[C@H](Cc2ccccc2)NC1=O", "tested on": "20S proteasome core particle", "assay": "proteasome activity, activator", "endpoint": "EC50", "value": "4.1 µM"}
{"Structure (SMILES)": "CCN1CCN(Cc2ccc(NC(=O)c3ccc(C)c(Oc4ncnc5cc(OC)c(OC)cc45)c3)cc2C(F)(F)F)CC1", "tested on": "STK10 (Homo sapiens, UniProt O94804)", "assay": "KINOMEscan competition binding", "setting": "1.0 µM", "endpoint": "residual probe binding", "value": "0%"}
{"Structure (SMILES)": "COc1ccc(S(=O)(=O)n2cc(CCN3CCC(=C(c4ccc(F)cc4)c4ccc(F)cc4)CC3)nn2)cc1", "tested on": "PFKL (Homo sapiens, UniProt P17858)", "assay": "enzyme activity, activator, ADP-Glo", "setting": "30 min", "endpoint": "EC50", "value": "56 µM"}
{"Structure (SMILES)": "O=C1CCC(N2C(=O)c3cccc(NCCOCCOCCOCCN4CCN(c5ccc(-c6ccc7c(c6)C(=O)N(C(C(=O)Nc6nccs6)c6ccccc6)C7)cn5)CC4)c3C2=O)C(=O)N1 (stereo not drawn)", "tested on": "EGFR (Homo sapiens, UniProt P00533, L858R/T790M)", "assay": "degrader, Western blot", "test system": "Ba/F3 EGFR L858R/T790M", "setting": "0.1 µM, 24 h", "scale": "baseline: DMSO", "endpoint": "remaining protein level", "value": "44%"}
{"Structure (SMILES)": "CC(C)(Oc1ccc(C2CC2(Cl)Cl)cc1)C(=O)O (stereo not drawn)", "tested on": "Ppara", "assay": "coactivator recruitment, agonist, biolayer interferometry, item: PGC-1alpha peptide", "setting": "pH 7.4, 25 °C, 0.1% fatty acid-free BSA", "endpoint": "EC50", "value": "5.4 µM"}
{"Structure (SMILES)": "C[C@H]1C[C@@H]2[C@H]3CCC4=CC(=O)C=C[C@@]4(C)[C@]3(Cl)[C@@H](Cl)C[C@]2(C)[C@]1(O)C(=O)COP(=O)(O)O", "tested on": "NR3C1", "assay": "nuclear translocation, agonist, enzyme fragment complementation", "endpoint": "EC50", "value": "7.37 µM"}
{"Structure (SMILES)": "O=C(O)C(Cl)(Cl)Cl", "tested on": "Ppara", "assay": "coactivator recruitment, agonist, biolayer interferometry, item: PGC-1alpha peptide", "setting": "pH 7.4, 25 °C, 0.1% fatty acid-free BSA, sodium salt", "endpoint": "EC50", "value": "900 µM"}
{"Structure (SMILES)": "CSc1ncnc2c1ncn2CC(=O)[C@H]1CC[C@H]2[C@H]3CCC4=CC(=O)CC[C@@]4(C)[C@@H]3CC[C@@]12C", "tested on": "NR3C1", "assay": "nuclear translocation, agonist, enzyme fragment complementation", "endpoint": "EC50", "value": "> 9 µM"}
{"Structure (SMILES)": "COc1cc(CC(=O)NCC(NC(=O)C(CCCNC(=O)c2cccc(I)c2)NC(=O)C(Cc2ccc(C(F)(F)P(=O)(O)O)cc2)NC(=O)c2ccc(C)c(Br)c2)C(N)=O)ccc1O (stereo not drawn)", "tested on": "PTPN3 (Homo sapiens, UniProt P26045)", "assay": "enzyme activity", "setting": "10 µM", "endpoint": "inhibition", "value": "no inhibition"}
{"Structure (SMILES)": "C[C@H](CCC(=O)O)[C@H]1CC[C@@H]2[C@@H]3CC[C@H]4C[C@@H](O)CC[C@@]4(C)[C@@H]3C[C@H](O)[C@@]21C", "tested on": "NR3C1", "assay": "nuclear translocation, agonist, enzyme fragment complementation", "endpoint": "EC50", "value": "> 9 µM"}
{"Structure (SMILES)": "Cc1cccc(NC(=O)c2nn(Cc3cnc[nH]3)c3c2CN(C(=O)c2ccc[nH]2)CC3)c1", "tested on": "IDH1 (Homo sapiens, UniProt O75874, R132C)", "assay": "R-2-HG production, inhibitor, LC-MS/MS", "test system": "HT-1080", "setting": "24 h", "endpoint": "EC50", "value": "> 36 µM"}
{"Structure (SMILES)": "CC1/C=C/CCCOC(=O)c2c(O)cc(O)cc2CC(=NOCC(=O)N2CCCCC2)/C=C/C1 (racemic)", "tested on": "HSP90AA1", "assay": "binding, fluorescence polarisation competition", "setting": "E/Z oxime mixture, together with: fluorescein-labelled 17-AAG", "endpoint": "EC50", "value": "0.587 µM"}
{"Structure (SMILES)": "C[C@@]12CC[C@H](O)C[C@@H]1CC[C@@H]1[C@@H]2CC[C@@]2(C)[C@@H](C3=CC(=O)OC3)[C@H](O)C[C@]12O", "tested on": "NR3C1", "assay": "nuclear translocation, agonist, enzyme fragment complementation", "endpoint": "EC50", "value": "> 9 µM"}
{"note": "Some of these lines once more:"}
{"Structure (SMILES)": "COc1ccc(S(=O)(=O)n2cc(CCN3CCC(=C(c4ccc(F)cc4)c4ccc(F)cc4)CC3)nn2)cc1", "tested on": "PFKL (Homo sapiens, UniProt P17858)", "assay": "enzyme activity, activator, ADP-Glo", "setting": "30 min", "endpoint": "EC50", "value": "56 µM"}
{"Structure (SMILES)": "C[C@H](CCC(=O)O)[C@H]1CC[C@@H]2[C@@H]3CC[C@H]4C[C@@H](O)CC[C@@]4(C)[C@@H]3C[C@H](O)[C@@]21C", "tested on": "NR3C1", "assay": "nuclear translocation, agonist, enzyme fragment complementation", "endpoint": "EC50", "value": "> 9 µM"}
